Experimental data of several laboratories.
Each numbered part is a random draw from the data of one study; scales do not carry over between parts.

Set 1
Target: Prothrombin, mature alpha-thrombin (F2, Homo sapiens, UniProt P00734)
Technique: aptamer microarray, sandwich
Molecule type: DNA with 2'F-ANA
Matrix: in vitro
Concentration: 200 nM
Notes: whole 15-mer aptamer, many near background
Together with: Cy3 exosite-II aptamer, 400 nM
Direction: higher = stronger binding
Strand: GGTTGGTGTGGTTGG
Modification	mean fluorescence intensity
2'F-ANA at 5 6 7 8	83.8 a.u.
2'F-ANA at 1 2 4 5 6 8 9 14	54.1 a.u.
2'F-ANA at 3 4 5 7 8 10 12 13 15	52.2 a.u.
2'F-ANA at 2 3 4 7 11 14	336 a.u.
2'F-ANA at 1 2 3 6 10 13 15	58.2 a.u.
2'F-ANA at 1 4 6 8 9 11 13 14 15	66.4 a.u.
2'F-ANA at 5 7 10 12 14 15	42.5 a.u.
2'F-ANA at 14 15	220 a.u.
2'F-ANA at 1 3 4 10	69.1 a.u.
2'F-ANA at 1 2 3 5 6 10 11 12 13 14	48.8 a.u.
2'F-ANA at 1 3 5 8 9 10 12 13 15	52.6 a.u.
2'F-ANA at 2 3 4 9 12 15	913 a.u.
2'F-ANA at 1 2 3 6 8 9 10 13 14	49.2 a.u.
2'F-ANA at 5 6 8 10 11 13	46.9 a.u.
2'F-ANA at 1 2 4 7 10 12 14	49.3 a.u.
2'F-ANA at 3 4 5 10 11 13 15	48.2 a.u.
2'F-ANA at 1 5 6 10 11	124 a.u.
2'F-ANA at 3 4 5 6 7 8 13	115 a.u.
2'F-ANA at 3 4 7 8 9 10	331 a.u.
2'F-ANA at 3 4 6 7 8 9 11 14	240 a.u.
2'F-ANA at 3 4 5 9 10 12 13	52.5 a.u.
2'F-ANA at 2 3 6 7 14	424 a.u.
2'F-ANA at 1 2 3 4 7 8 9 12 13	266 a.u.
2'F-ANA at 1 2 3 4 7 11	161 a.u.
2'F-ANA at 1 2 3 6 8 10 12 13 14 15	60.6 a.u.

Set 2
Target: Ras GTPase-activating protein-binding protein 1, C-terminal RGG region (G3BP1, Homo sapiens, UniProt Q13283)
UniProt Q13283, sequence (whole entry, looked up): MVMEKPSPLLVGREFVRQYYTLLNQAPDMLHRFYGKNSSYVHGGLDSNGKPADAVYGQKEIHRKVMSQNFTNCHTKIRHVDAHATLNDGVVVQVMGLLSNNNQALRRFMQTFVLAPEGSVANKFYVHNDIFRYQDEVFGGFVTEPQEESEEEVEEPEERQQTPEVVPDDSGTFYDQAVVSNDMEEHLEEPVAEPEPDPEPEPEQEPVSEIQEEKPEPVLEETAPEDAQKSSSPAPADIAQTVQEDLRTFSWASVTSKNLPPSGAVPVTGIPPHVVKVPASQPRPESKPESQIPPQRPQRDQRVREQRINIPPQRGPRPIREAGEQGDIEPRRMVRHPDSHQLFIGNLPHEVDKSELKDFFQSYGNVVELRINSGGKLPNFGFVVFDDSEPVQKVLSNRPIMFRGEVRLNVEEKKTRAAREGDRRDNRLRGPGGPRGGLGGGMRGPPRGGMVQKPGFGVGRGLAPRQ
Technique: RNA Bind-n-Seq
Molecule type: RNA
Matrix: in vitro
Concentration: 1 µM
Notes: whole 134-nt RNA, ends assumed
Together with: 150 mM KCl
Reference: input library
Direction: higher = stronger binding
Shared flanks, not repeated: GGGAGUUCUACAGUCCGACGAUC … UGGAAUUCUCGGGUGUCAAGG
Strand	log2 enrichment
GUCCUGUGCUACACAUCGUAUGUACCGAAUCGGGGUUUUUUUGGGGUUUGGGGUGGGGAAAGUAUUAUGUUACGCCGUUCGGAUCUGCAC	1.99
ACCAUGCAGGUGGGCAUCUUUGGGAAGUGGGGCAAGGGGGGGAUAGGGACGGGGGUAACACUUUGGGAACAGGUGGUCCCAGGUCGUUUC	2.04
AGUCCUGUGCUACACAUCGUAUGUACCGAAUCGGGGAAAGGGGUUUUUGGGGUGGGGAAAGUAUUAUGUUACGCCGUUCGGAUCUGCACU	1.9
GUCCUGUGCUACACAUCGUAUGUACCGAAUCGGGAAAAAAGGAAAAAAGGAAAAAAGGGAAAGUAUUAUGUUACGCCGUUCGGAUCUGCA	-1.83
UGGCCCUGGUGGCAUGCGGGGAGGAAGAGGUGGCCUCAUGAAUCGUGGUGGUCCCGGUGGAAUGUUCAGAGGUGGCCGUGGUGGAGACAG	1.73
UGGCCCUGGUGGCAUGUGGGGAGGAAGAGGUGGCCUCAUGGAUCGUGGUGGUCCCGGUGGAAUGUUCAGAGGUGGCCGUGGUGGAGACAG	1.86
CAAGUCCUGUGCUACACAUCGUAUGUACCGAAUCGGGUUUUUGGGAGGGUUUGGGAAAGUAUUAUGUUACGCCGUUCGGAUCUGCACUUC	1.54
UGGGAGGUGGAUUUUGUUUAUUUUUUUAGCUCAUUUCCAGGGGUGGUAAUUUUUUUUUAAUAUGUGUCAUGAAUAAAGUUGUUUUUGAAA	2.67
CAAGUCCUGUGCUACACAUCGUAUGUACCGAAUCGGGUUUGGGUGGGUUUUUGGGAAAGUAUUAUGUUACGCCGUUCGGAUCUGCACUUC	1.8
UGGCCCUGGUGGCAUGCGGGGAGGAAGAGGUGGCCUCAUGGAUCGUGGUGGUCCCGGUGGAAUGUUUAGAGGUGGCCGUGGUGGAGACAG	2.01
CUCAAGUCCUGUGCUACACAUCGUAUGUACCGAAUCGGCCGGCCGGGCCGGGGAAAGUAUUAUGUUACGCCGUUCGGAUCUGCACUUCCA	-1.25
UAACUUUACAGGAGGAUCUGAUGGAUAUGGCAGUGGACGUGGAUUUGGGGAUGGCUAUAAUGGGUAUGGAGGAGGACCUGGAGGUGGCAA	-1.9
AGUCCUGUGCUACACAUCGUAUGUACCGAAUCGGGCCCCGGGGCCCCGGGCCCCGGGGAAAGUAUUAUGUUACGCCGUUCGGAUCUGCAC	-2.94
GCAGGAAGUAAAAACAAAUGGAAAUGCUUAAAAUAGUGGCAGGGGUGGGGGUUGCUAAGGAAAGGGUGGGAUGGGAGUGGGUAAAGAGUU	2.37

Set 3
Target: Sal-like protein 4, full length isoform A (SALL4, Homo sapiens, UniProt Q9UJQ4, residues 1-1053)
UniProt Q9UJQ4, sequence (whole entry, looked up): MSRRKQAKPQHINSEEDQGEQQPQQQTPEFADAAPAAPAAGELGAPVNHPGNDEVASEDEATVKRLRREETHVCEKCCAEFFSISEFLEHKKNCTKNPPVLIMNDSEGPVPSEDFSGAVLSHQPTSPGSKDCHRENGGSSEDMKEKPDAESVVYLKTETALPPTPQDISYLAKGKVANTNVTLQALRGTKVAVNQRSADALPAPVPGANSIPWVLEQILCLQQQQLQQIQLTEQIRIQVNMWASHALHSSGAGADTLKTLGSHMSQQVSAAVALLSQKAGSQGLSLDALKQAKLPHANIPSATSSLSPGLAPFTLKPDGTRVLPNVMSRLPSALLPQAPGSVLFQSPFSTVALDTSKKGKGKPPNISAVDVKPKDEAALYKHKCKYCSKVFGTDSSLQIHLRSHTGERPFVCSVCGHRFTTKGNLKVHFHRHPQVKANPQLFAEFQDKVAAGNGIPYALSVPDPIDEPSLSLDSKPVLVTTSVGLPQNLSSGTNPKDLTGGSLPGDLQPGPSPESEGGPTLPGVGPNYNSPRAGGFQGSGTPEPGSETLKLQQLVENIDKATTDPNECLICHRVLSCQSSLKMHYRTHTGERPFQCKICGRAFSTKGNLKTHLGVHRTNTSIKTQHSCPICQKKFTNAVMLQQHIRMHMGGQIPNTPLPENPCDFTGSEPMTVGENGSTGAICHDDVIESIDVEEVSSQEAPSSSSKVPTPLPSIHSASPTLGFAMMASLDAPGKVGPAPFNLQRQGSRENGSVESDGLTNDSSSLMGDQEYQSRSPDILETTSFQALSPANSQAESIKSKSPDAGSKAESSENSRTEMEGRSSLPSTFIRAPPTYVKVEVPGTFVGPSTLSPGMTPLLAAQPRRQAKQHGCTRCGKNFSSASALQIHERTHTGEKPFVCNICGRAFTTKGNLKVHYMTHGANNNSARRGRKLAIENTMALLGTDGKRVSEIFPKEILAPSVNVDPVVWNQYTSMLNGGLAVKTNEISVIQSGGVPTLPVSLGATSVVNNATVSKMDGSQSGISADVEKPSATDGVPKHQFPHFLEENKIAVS
Technique: universal PBM
Molecule type: double-stranded DNA, one strand shown
Matrix: in vitro
Concentration: 600 nM
Notes: 8-mer, flanks averaged, mean of replicates
Direction: higher = stronger binding
Strand	E-score
AACGCCTA	-0.0478
ACAGGCTC	-0.172
CGACTAGA	-0.0576
AGACAGCG	-0.176
AGAATCTG	0.0458
CACCAGGG	-0.34
ACTTTTTC	0.138
GGGTGGAC	-0.404
ATTAAATC	0.257
AGTCCGCC	-0.131
CGACTGAC	-0.152
AGTTTCTA	0.138
AAAGGCGG	-0.0279
AACCCCTT	-0.123
GCTGCCAC	-0.217
CGTGGAAC	-0.149
AATAGGGT	0.202

Set 4
Target: Histone acetyltransferase KAT6A, both winged helices, GST fusion (KAT6A, Homo sapiens, UniProt Q92794, residues 1-181)
Technique: protein binding microarray
Molecule type: double-stranded DNA, one strand shown
Matrix: in vitro
Concentration: not given
Notes: 8-mer, flanks averaged, mean of 2 arrays, mostly near background
Reference: not given
Direction: higher = stronger binding
Construct (chain): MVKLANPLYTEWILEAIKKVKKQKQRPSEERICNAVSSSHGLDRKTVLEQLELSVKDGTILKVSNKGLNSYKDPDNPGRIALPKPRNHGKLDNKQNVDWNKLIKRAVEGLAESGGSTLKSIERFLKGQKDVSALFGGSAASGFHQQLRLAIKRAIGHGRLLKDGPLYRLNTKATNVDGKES
Strand	E-score
CAGATGGA	-0.015
GGCTCTAC	0.0175
CATACTGC	-0.0039
AGAAGGAT	-0.193
TGGCTAAA	-0.0427
GCATCGGC	0.179
TATGTGAA	-0.079
ACGACAAA	0.0326
AGGCGTGA	-0.0389
ATAGTTCA	0.0207
ATGCTGAC	-0.114
GCTGAACA	-0.121
AGGCCGTG	0.187
ATATTGAC	0.00642
GCGGGCAA	0.18
ATCGTTGC	-0.0596
CGCTATGA	0.12
AGAAATAC	-0.142
CTCCAGGA	-0.142
CTTCAAAG	-0.111
CTGGGGCA	-0.232
CAACCAAG	-0.141
AACTCTCC	-0.142
ACGCGTGG	0.288
ATGGGAGC	-0.037

Set 5
Target: RING finger protein unkempt homolog, zinc fingers 1-6, GST-SBP tag (UNK, Homo sapiens, UniProt Q9C0B0, residues 30-357)
UniProt Q9C0B0, sequence (30-357, looked up): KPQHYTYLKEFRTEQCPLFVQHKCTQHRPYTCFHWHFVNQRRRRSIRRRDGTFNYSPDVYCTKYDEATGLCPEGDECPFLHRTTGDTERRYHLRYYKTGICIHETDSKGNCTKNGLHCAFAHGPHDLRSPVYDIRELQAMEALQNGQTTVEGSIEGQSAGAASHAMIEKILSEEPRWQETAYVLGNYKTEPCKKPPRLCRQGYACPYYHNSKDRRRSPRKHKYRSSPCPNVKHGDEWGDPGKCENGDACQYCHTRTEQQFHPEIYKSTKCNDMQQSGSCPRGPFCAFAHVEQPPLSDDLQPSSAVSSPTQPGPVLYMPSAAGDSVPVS
Technique: RNA Bind-n-Seq
Molecule type: RNA
Matrix: in vitro
Concentration: not given
Notes: RNA with constant flanks, human and mouse sites, ends assumed
Reference: input RNA pool
Direction: higher = stronger binding
Shared flanks, not repeated: GGGAGUUCUACAGUCCGACGAUC … CAACAGAGGAUUGAGCAUCA
Strand	bound/input enrichment [ratio]
AGGUCAGUGUACCAAGACAAUGAAAGCGAAGCAGGCAAGAACACCAUUGACUACAUCUACAACACGCGACUAAGCCGGGGCGAGUACGUGGACGUUCCUUUUCCCAACCAGUACCAGUAU	0.215
UGUAUGGUAACUAAAGGUGCCAGCAUGUUGACUUUAUUACAAUUUGUAUUACUUCCUCUGUAGUUCCUAAUGGACUCAAUCACAGACUCUGGAUAUUUGCACUUAUGUACUUGAUACUGA	0.345
CCCUCCGCUGGGAACGAUGGCUUCUGCCUAGUACCUAUCCUUGUGUUUCUGAUGCAGUGGUAGCAUUGGUUCAAGUUCUCUCCUGCUGUGGUCAGAGUUGCUUCGAUGUUGGCCAAGUGC	0.259
CCAGAAGCCAUAAGGCAAGAUCCUACCCGGAAAGGCUCAGUGGUCAAUGUGAAUCCUACCAACACUAGGCCACAGAGUGACACCCCGGAGAUUCGUAAAUACAAGAAGAGGUUUAACUCU	0.121
CUCACGGCCCAGCAUGAGAACUUCAGGAAAAAGCAGAUUGAAGAGCUGAAGGGACAAGAAGUUAGUCCUAAAGUGUACUUCAUGAAGCAGACCAUUGGGAAUUCCUGUGGCACAAUCGGA	0.115
AACUGUGCGAUCAGCAGUUCUGAUGACCGUAGUCUGUUUCGACGGCUGAAACUUAAUUACGCAAUUUUUGAUGAGGGCCAUAUGCUGAAGAAUAUGGGCUCCAUUCGCUACCAGCACCUU	0.116
UAGAUACCCCAGCGAGUUCUGACUCUGAACUAUAACUUUUUUUUUUUUUAAUGCAAAGACACUAGUCUGAUAAUAUAUACUGUAUUCCCGGAGACAUUUGUGUUACUUACCCUUGGGGGC	10.8
UUGAUCAAGUUUUAUAAAUGCCAUUCAUAGGAGCUGUGAUUCUGGCAAAUUAAAGUAAUUCAUAGUUUUCUGCAAUUUGAAAUAAAAGCAUUUCCAACUUCUAGAUUAUCAUUUUAUAAA	1.71
UUGUUUCUCCGUUUUCUUUGCCCAGCCAUUAUGUCUCCCAGUCUUUUCAACCUGAUGCAGGAAUAUCCUGAUGACCGCACAUCUCGGACACUAACUCUUAUUGCCAAGGUCAUUCAGAAC	0.466
GCAUUUAAUCUGGCAGAACAGCACCUCGGCCUCACUAAACUGUUGGACCCCGAAGACAUCAGCGUGGACCAUCCUGAUGAGAAGUCCAUAAUCACUUAUGUGGUGACUUAUUACCACUAC	0.186
GCAUGGAGCAUGAAUUCUUACUAAUAGAGACUGUAGUUUUUUUCUUGUCUUUGGUAAAUAUAUAAAAGACCUUAAUUUUUCUUUUUUAAUGAAUGGAGAAAACAUGAGAAAACCAGAUGG	1.02

Some of these lines once more (set 3):
Strand	E-score
ATTAAATC	0.257
AGTCCGCC	-0.131
CGACTGAC	-0.152
AGTTTCTA	0.138
AAAGGCGG	-0.0279
AACCCCTT	-0.123
GCTGCCAC	-0.217
CGTGGAAC	-0.149
